# Measurements collected from several papers.
# Numbered parts are unrelated; each lists some results of a single study.

# Study 1
# Target: RNA binding protein fox-1 homolog 2, RRM domain, GST-SBP tag (RBFOX2, Homo sapiens, UniProt O43251-10, residues 100-194)
# Technique: RNA Bind-n-Seq
# Form: RNA
# Sample: in vitro
# Tested at: 365 nM
# Notes: natural RNA segment, single round, ends assumed
# Relative to: no-protein control
# Direction: higher = stronger binding
# Constant ends, left off below: GGGAGUUCUACAGUCCGACGAUC … UGGAAUUCUCGGGUGCCAA
# Residues (chain): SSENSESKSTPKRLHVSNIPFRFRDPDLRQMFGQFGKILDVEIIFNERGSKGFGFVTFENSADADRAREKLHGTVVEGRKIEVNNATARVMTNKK
Strand,RBNS enrichment (R)
GGAAAUGAAUGACUAAUACCAUUAUUUGAGUCUUAUGUGAAGACAACACUAUUCUAACACGAGAGAUAAUAUACAUGGUACUGUUUAUUCAACUGGGGAAAAAUAAAACU,0.347
GCUAGCCACACUCCGUGGCCCACCCUUUGUUACCAGUUCUUCCUCCUUCCUCUUUUCCCCUGCCUUUCUCAUUCCUUCCUUCGUCUCCCUUUUUGUUCCUUUGCCUCUUG,2.83
GCAGUUCUAGUUUUCCCAGUAGUUCCAUGGCAGGUUCAACCUCUCAGUGUCCUGAAAAAUGGAACCACCCACUAACCAUAUGCACUGGCUGCCCAGGUGGCUGCACUCCG,0.935
GUCUCCUGUUGUUUCUGCCACAGGGACUUCCUUGGUCCCUUCAGGGAAGCCCUCAACUCAUCUCUGAACUUAGAAUCUCAUCCUUAGGGCUCAGAGAGUCCCAGCCCUAA,0.348
UAUUUGAAAGGCAACAUAGUCAAUUAAGAAACCUGUAGUUGUUAAGGAAGAAAUUGUUGGCAAGAUAUCCAUACUGCCCAUAUCUCGUUGGUGCAAUAAUUAAAUAGCAA,0.353
AAUCCUGCCCUUCCCUCACAGAGCUGGAACUCCAAGCCUGGCCCCAAAGACCCUCCAUCACGAAGAGCACUUUACAGAUAAGAAUCUUCCUCCCCAGUUCUUCAUGCCUC,0.884
GGUUUGCUGAAACUGACAGAGCCUGGGCUCCAGACCUCUCUCCCUCCUACAGUGCUCUCCCUCCCUGGGCAGAUUGGCAGGACAAGUGGGAGCAGAUGGCCUGCCUUUGG,0.752
AGAUGGUAAACCAGAUCUGUCUCCAAGACCUUGGCCUCUCCUUGGAGGACCUUUAGGUCAAACUCCCUAGUCUCCACCUGAGACCCUGGGAGAGAAGUUUGAAGCACAAC,0.233

# Study 2
# Target: Hepatocyte nuclear factor 3-alpha (Foxa1, Mus musculus, UniProt P35582, residues 1-468, full length assumed)
# Sequence of UniProt P35582 (whole entry, looked up): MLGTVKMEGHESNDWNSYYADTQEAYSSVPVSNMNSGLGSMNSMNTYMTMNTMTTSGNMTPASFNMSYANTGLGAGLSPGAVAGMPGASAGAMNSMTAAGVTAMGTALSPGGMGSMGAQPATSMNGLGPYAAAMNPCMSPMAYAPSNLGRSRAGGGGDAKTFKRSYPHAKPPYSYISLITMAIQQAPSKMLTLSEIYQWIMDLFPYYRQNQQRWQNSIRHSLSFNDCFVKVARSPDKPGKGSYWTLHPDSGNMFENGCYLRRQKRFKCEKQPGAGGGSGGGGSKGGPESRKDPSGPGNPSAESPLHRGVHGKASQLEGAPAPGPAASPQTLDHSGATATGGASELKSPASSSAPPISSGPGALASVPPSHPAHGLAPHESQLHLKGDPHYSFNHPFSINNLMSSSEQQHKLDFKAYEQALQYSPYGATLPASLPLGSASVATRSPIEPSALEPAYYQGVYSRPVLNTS
# Technique: EMSA with sequencing
# Form: double-stranded DNA, one strand shown
# Sample: in vitro
# Tested at: 10 and 20 nM
# Notes: whole designed probe, mean of two concentrations, ends assumed
# Relative to: negative control set to 0
# Direction: higher = stronger binding
# Constant ends, left off below: GTGAGCGGTGCCCATTGATGGGGAAC … TTTCACTGGGATCGTGGGGAC
Strand,normalised bound fraction
ATCTTCCCCCTCTTCCTTGCCCCACCAGCTCACCTACGGGGGTTATTTGCAGATAGGAAAATAAATAAAGCCGGCATTCGTTAACCCTCTTCTGGCGCAAACTGCTGTTTGCTCTGGATGAATCATGGTCCTTTGGCGAGGCGTGGCTCCGGGAGAGCAAAGCACCGTGTCAGGGCCATGATCCGGGCTCGCC,0.335 ratio
TTCTCAACAAAATTCCCACATTTATTGCTCCTCTTCTTGCTCCTGGGTTTACCTTCCTTGAATGATGATGGCATGTTTACAGTAACTCCCAGTGTTTACATTACAACTCCCAATGTTTACACTCCTTTTGTTTACATCAGGTCCCAATAATGAGGACAACTTTCTTATAGAGTGAACCTCAGTCCCCCATTAC,0.525 ratio
ATCTTTGCTGGGGTTGGGCCATAGCTTGATGGGTATTTGTTGAATGACTAATTATTGACTTATAGGCTAACAGCCTCCTTTGAAGTAGGCTGAGCAAACAAACCATTAAGTGGAACATGGTGTCTAGGTTACACAGCTCACTCATCTGCTAATCACTGGGGCACACTGCTGGTTATTATTACCTGAGACCCTG,0.509 ratio
ATGATCCTCCCTTTCTTCAGCTGTCCAATGGGTTAATCATCCCAAGTCCCCCAGCCTTGATGACAATCCAGGGGGCTGGGGTATATCTGCCATTGTTTGCCTTTCCCTTGCTTCTCTCTGAGTGATTGGCAGACAGCAGGCCTCTGAATGCCATCCTCCCCAGCATTCTTGGCAAGGCGGCTGAAACTCCAGC,0.287 ratio
ATACAGCCTAGAACTCCTGGGCTCAAAAGATCCTCCCACCTCAGCCTCCTGAGTAGCTAGGACTACAGAGGCGCATGCCAACATGTGTGGCAAAAATTACTAAATTATTTAGAAAAGAGGTCTCGCTTTGTTGCCCAGGCTAGTGTGCAGTGGCGCAATCTTGGCTCACTGCAACCTCTTCCTCCCAAGTTCA,-0.026 ratio

# Study 3
# Target: Interferon regulatory factor 5, full length, phosphomimetic (IRF5, Homo sapiens, UniProt Q13568-2, residues 1-514, K96S/S451D/S453D/S456D/S462D)
# Technique: protein-binding microarray
# Form: double-stranded DNA, one strand shown
# Sample: in vitro
# Tested at: 250 nM
# Notes: 60-bp whole probe
# Added: salmon DNA 0.4 mg/ml
# Relative to: random background probes
# Direction: higher = stronger binding
# Constant ends, left off below: GCCTAGCAC … GTCTTGATTCGCTTGACGCTGCTG
Strand,log fluorescence [z-score]
TTAGATTCCAGACTGGATTAGTGCTAG,-0.0724
ATAGAACTGAGACTGGATTAGTGCTAG,-0.00313
TTAAATTCCAGTTTCGATTAGTGCTAG,10.2
TTAGAACTGAGACTGGAATAGTGCTAG,-0.0638
TTCGGACTGCTTCTCCTTTAGTGCTAG,-0.168
TTAGGTTACGACACTGGGTTAGTGCTA,0.157
TTAGGACTGGGTATCGATTAGTGCTAG,2.96
TTAGGTATCCTTCTCCTCTAGTGCTAG,0.237
TTAGGTTTCCGTTTCCTTTAGTGCTAG,2.26
TGAGGTATCCTTTTCCTTTAGTGCTAG,0.222
TCATTTAGTAGTTTCTAACTGTGCTAG,1.16
GGGCGGGTGCCAACTCTTAGGTGCTAG,-0.901
GACGGTTTCCTTAGCCTGACGTGCTAG,0.418
TTAGGACTGGGTATCGCTTAGTGCTAG,0.582
TCAACTAGGGAATTTAGAACTGTGCTA,-0.0438
ATTTTTTTTTTCATCATTGCGTGCTAG,1.31
GTCATACGAGCGGTAGCCAAGTGCTAG,-0.404

# Study 4
# Target: Sal-like protein 4, full length isoform A (SALL4, Homo sapiens, UniProt Q9UJQ4, residues 1-1053)
# Sequence of UniProt Q9UJQ4 (whole entry, looked up): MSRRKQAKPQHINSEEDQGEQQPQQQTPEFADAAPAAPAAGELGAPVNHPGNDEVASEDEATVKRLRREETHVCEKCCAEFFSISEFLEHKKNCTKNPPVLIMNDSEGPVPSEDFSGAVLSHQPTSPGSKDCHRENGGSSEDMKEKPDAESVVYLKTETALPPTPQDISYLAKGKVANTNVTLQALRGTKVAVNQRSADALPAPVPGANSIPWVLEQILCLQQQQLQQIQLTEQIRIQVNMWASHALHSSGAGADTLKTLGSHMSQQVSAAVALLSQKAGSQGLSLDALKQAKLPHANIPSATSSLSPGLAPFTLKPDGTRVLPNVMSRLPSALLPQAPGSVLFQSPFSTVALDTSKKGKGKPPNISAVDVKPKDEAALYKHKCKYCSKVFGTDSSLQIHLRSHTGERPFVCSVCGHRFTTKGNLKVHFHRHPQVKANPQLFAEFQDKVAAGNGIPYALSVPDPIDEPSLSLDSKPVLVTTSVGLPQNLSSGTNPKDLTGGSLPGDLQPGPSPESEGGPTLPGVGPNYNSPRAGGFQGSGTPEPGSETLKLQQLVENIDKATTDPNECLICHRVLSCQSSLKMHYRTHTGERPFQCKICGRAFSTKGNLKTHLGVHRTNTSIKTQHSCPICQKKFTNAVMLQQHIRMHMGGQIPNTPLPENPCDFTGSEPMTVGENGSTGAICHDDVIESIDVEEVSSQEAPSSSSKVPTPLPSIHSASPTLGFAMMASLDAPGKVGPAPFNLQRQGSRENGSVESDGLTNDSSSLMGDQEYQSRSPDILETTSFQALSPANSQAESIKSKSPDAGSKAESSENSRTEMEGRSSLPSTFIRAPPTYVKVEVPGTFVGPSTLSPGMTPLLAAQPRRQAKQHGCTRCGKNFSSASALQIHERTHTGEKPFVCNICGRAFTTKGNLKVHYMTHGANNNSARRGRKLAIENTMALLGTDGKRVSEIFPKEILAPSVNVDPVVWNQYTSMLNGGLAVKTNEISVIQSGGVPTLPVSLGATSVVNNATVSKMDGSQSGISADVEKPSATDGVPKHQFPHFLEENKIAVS
# Technique: universal PBM
# Form: double-stranded DNA, one strand shown
# Sample: in vitro
# Tested at: 600 nM
# Notes: 8-mer, flanks averaged, mean of replicates
# Direction: higher = stronger binding
Strand,E-score
ACTCTCAC,-0.0623
TAACGCGA,0.0565
CGCAGCGC,-0.221
AAAAAGAC,0.242
GAACCAAA,-0.0922
AGGGATAC,-0.0584
ATACGAGA,0.154
AGGTTCTA,-0.0125
AGCTGGCC,-0.211
CCGGGCTA,-0.379
CTTTAATC,0.156
CTTCATAC,0.205
CTTCGTGC,-0.108
ATCGACAT,0.181
CTTTACCC,0.018
CGGGTTAC,-0.133
CATTTAGA,0.155
CGTCCGTC,-0.382
GGTTCGGA,-0.226
ATGGGTTG,-0.00721
ACGGTCCG,-0.305
AATCGAAG,0.195

# Some of these lines once more (study 4):
Strand,E-score
ATCGACAT,0.181
CGGGTTAC,-0.133
AGCTGGCC,-0.211
